Experimental data from different studies.
Lines come from different studies, so protocols differ. ± marks the error that the study gave.
B1: enzyme Y7A (Streptomyces parvus, UniProt A0A7K3RVR3); chain MYVPEQARPRDASWTLELIRSNPLALLVTNGPQHPWATHVPVLFAEEPDGPEGPDGLDATGDDLVGRRLLGHLNLMNPHWEALAGAGHALLVFQGPGSYVSPTVYETAPAAPTWDFTSVHVHGALRLIDDPDDLRKIVQATVRAYEREVGTDWDMSESLEYFERLLPGVRGFEIKIESVDSMFKLSQEQLPETVTKVIDSFRRSDGGRRQELATMIERAASD
B2: enzyme N77A (Streptomyces parvus, UniProt A0A7K3RVR3); chain MYVPEQYRPRDASWTLELIRSNPLALLVTNGPQHPWATHVPVLFAEEPDGPEGPDGLDATGDDLVGRRLLGHLNLMAPHWEALAGAGHALLVFQGPGSYVSPTVYETAPAAPTWDFTSVHVHGALRLIDDPDDLRKIVQATVRAYEREVGTDWDMSESLEYFERLLPGVRGFEIKIESVDSMFKLSQEQLPETVTKVIDSFRRSDGGRRQELATMIERAASD

| Molecule | tested on | assay | test system | conditions | scale | measurement | value |
| --- | --- | --- | --- | --- | --- | --- | --- |
| B1 (enzyme Y7A) | N[C@@H](CCCNO)C(=O)O | steady-state kinetics |  | pH 8, 25 °C, together with: heme |  | Km | 3620 µM |
| O=C(O)CC[C@H](NC(=O)N[C@@H](CCCCNC(=O)[C@H](Cc1ccc2ccccc2c1)NC(=O)[C@H]1CC[C@H](CNC(=O)CN2CCN(CC(=O)O)CCN(CC(=O)O)CCN(CC(=O)O)CC2)CC1)C(=O)O)C(=O)O [terbium-161 labelled] |  |  |  | pH 7.4 |  | logD | -2.63 ± 0.02 |
| CN[C@H](CC(C)C)C(=O)N[C@H]1C(=O)N[C@@H](CC(N)=O)C(=O)N[C@H]2C(=O)N[C@H]3C(=O)N[C@H](C(=O)N[C@H](C(=O)NCC(N)=O)c4cc(O)cc(O)c4-c4cc3ccc4O)[C@H](O)c3ccc(c(Cl)c3)Oc3cc2cc(c3O[C@@H]2O[C@H](CO)[C@@H](O)[C@H](O)[C@H]2O[C@H]2C[C@](C)(NCc3ccc(OCc4cn(CC(=O)N[C@H](C(=O)N[C@@H](CCN)C(=O)N[C@H]5CCNC(=O)[C@H]([C@@H](C)O)NC(=O)[C@H](CCN)NC(=O)[C@H](CCN)NC(=O)[C@H](CC(C)C)NC(=O)[C@@H](CC(C)C)NC(=O)[C@H](CCN)NC5=O)[C@@H](C)O)nn4)c(OC)c3)[C@H](O)[C@H](C)O2)Oc2ccc(cc2Cl)[C@H]1O | sheep erythrocytes |  |  | 512 µg/mL, 37 °C | baseline: Triton X-100 | hemolysis | < 5% |
| CC[C@H](C)[C@H](NC(=O)[C@H](CO)NC(=O)[C@H](Cc1ccc(O)cc1)NC(=O)[C@H](Cc1ccc(O)cc1)NC(=O)[C@H](CC(N)=O)NC(=O)CNC(=O)[C@H](CO)NC(=O)[C@H](Cc1ccc(O)cc1)NC(=O)[C@H](CO)NC(=O)[C@H](CO)NC(=O)[C@H](CC(N)=O)NC(=O)COCCOCCNC(=O)CN1CCN(CC(=O)O)CCN(CC(=O)O)CCN(CC(=O)O)CC1)C(=O)N[C@@H](CC(C)C)C(N)=O [copper-64 labelled] |  | dynamic PET | tamoxifen-induced PDAC mouse model, metastases | 17.5 min, CLDN4-expressing tumours |  | maximum metastasis uptake | 19.3 %IA/cc |
| CC(C)C[C@@H]1NC(=O)[C@H](CC(=O)O)NC(=O)CNC(=O)[C@H](CCCNC(=N)N)NC(=O)[C@H](Cc2ccccc2)NC(=O)[C@H](CCCCNC(=O)CCc2cn(CCCNC(=O)CN3CCN(CC(=O)O)CCN(CC(=O)O)CCN(CC(=O)O)CC3)nn2)N(C)C(=O)[C@H]2CCCN2C(=O)[C@H](Cc2ccccc2)NC(=O)[C@H](C)NC1=O |  |  | female CB17 SCID mice, tumour and heart | intravenous, dose not given, 90 min, 177Lu-labelled | baseline: tumour over heart | tissue-to-tissue ratio | 5.6 ± 3.9 |
| N=C(N)NCCC[C@@H]1NC(=O)[C@H](CCCCNC(=O)CCC(NC(=S)Nc2ccc(CC3CN(CC(=O)O)CCN(CC(=O)O)CCN(CC(=O)O)CCN3CC(=O)O)cc2)C(=O)NCCCC[C@@H]2NC(=O)[C@@H](Cc3ccc(O)cc3)NC(=O)[C@H](CC(=O)O)NC(=O)CNC(=O)[C@H](CCCNC(=N)N)NC2=O)NC(=O)[C@@H](Cc2ccc(O)cc2)NC(=O)[C@H](CC(=O)O)NC(=O)CNC1=O (stereo partly shown) [scandium-44 labelled] |  | ex vivo γ-counting | female athymic nude mice, U-87 MG xenograft, blood | intravenous, 4 h |  | tissue uptake | 0.02 %ID/g |
| B2 (enzyme N77A) | N[C@@H](CCCNO)C(=O)O | steady-state kinetics |  | pH 8, 25 °C, together with: heme |  | Km | 950 µM |
| CC(C)C[C@@H]1NC(=O)[C@H](CC(=O)O)NC(=O)CNC(=O)[C@H](CCCNC(=N)N)NC(=O)[C@H](Cc2ccccc2)NC(=O)[C@H](CCCCNC(=O)CCc2cn(CCCNC(=O)CCC(C(=O)O)N3CCN(CC(=O)O)CCN(CC(=O)O)CCN(CC(=O)O)CC3)nn2)N(C)C(=O)[C@H]2CCCN2C(=O)[C@H](Cc2ccccc2)NC(=O)[C@H](C)NC1=O (stereo partly shown) |  |  | female CB17 SCID mice, tumour and kidneys | intravenous, dose not given, 90 min, 177Lu-labelled | baseline: tumour over kidneys | tissue-to-tissue ratio | 0.2 |
| CC(C)C[C@H](NC(=O)[C@@H](N)Cc1ccccc1)C(=O)N[C@@H](C)C(=O)N[C@H]1CSCc2cccc(n2)CSC[C@@H](C(=O)N[C@H](C(=O)NCC(=O)N[C@@H](CO)C(=O)N[C@@H](Cc2c[nH]c3ccccc23)C(=O)N[C@@H](CCCCNC(=O)CN2CCN(CC(=O)O)CCN(CC(=O)O)CCN(CC(=O)O)CC2)C(N)=O)[C@@H](C)O)NC(=O)[C@H](Cc2c[nH]cn2)NC(=O)[C@H]([C@@H](C)O)NC(=O)[C@H](CCC(=O)O)NC(=O)[C@@H]2CCCN2C1=O [gallium-68 labelled] |  | PET/CT | C57BL/6J mice, B16-F10 tumour, tumour | intravenous, 3.7 MBq, 1 h |  | tumour uptake | 4.63 ± 0.42 %ID/g |
| C[C@@H](O)[C@@H]1NC(=O)[C@@H](NC(=O)CCOCCOCCOCCOCCNC(=O)c2ccc(NN)nc2)CSSC[C@@H](C(=O)O)NC(=O)[C@H](Cc2c[nH]cn2)NC(=O)[C@H](CO)NC(=O)[C@H](Cc2ccccc2)NC(=O)[C@@H]2CCCN2C(=O)[C@H](CO)NC(=O)[C@@H]2CCCN2C1=O [technetium-99m labelled] |  |  | mouse HCT-116 xenograft, tumor | intravenous, 37 MBq, postmortem after imaging |  | tissue uptake | 0.87 ± 0.21 %ID/g |

A few entries again:
| Molecule | tested on | assay | test system | conditions | scale | measurement | value |
| --- | --- | --- | --- | --- | --- | --- | --- |
| B2 (enzyme N77A) | N[C@@H](CCCNO)C(=O)O | steady-state kinetics |  | pH 8, 25 °C, together with: heme |  | Km | 950 µM |
